Measurements from different studies.
Protocols differ between the studies behind these lines. ± marks the error that the study gave.

O=C(O)c1ccc([S][Au][PH](c2ccccc2)(c2ccccc2)[c-]2cccc2)cc1.[Fe+2].c1cc[cH-]c1  IC50 (renal proximal tubule cells; cytotoxicity, XTT; 72 h): 3.78 ± 0.13 µM
C#CCSc1nc(Sc2nnnn2C)c2nnn(Cc3ccccc3)c2n1  IC50 (U-937; cell growth or viability, MTS; 6 days): 2.31 µM
C[C@H]1C(OCCCCCC[P+](c2ccccc2)(c2ccccc2)c2ccccc2)O[C@@H]2O[C@@]3(C)CCC4[C@H](C)CCC1[C@]42OO3 (stereo partly shown)  IC50 (T24; cell growth or viability, MTT; 72 h): 0.156 µM
CC[C@@]1(O)C(=O)OCc2c1cc1n(c2=O)Cc2c-1nc1cc(F)c(C)c3c1c2[C@@H](NC(=O)CO)CC3  IC50 (MDA-MB-468; cell growth or viability, ATP luminescence; 5 days): 0.0005 µM
CC(C)(C)C(=O)OCOP(=O)(OCOC(=O)C(C)(C)C)C1CCCN(O)C1=O (stereo not shown)  IC50 (RCC4 VHL-deficient; cell growth, crystal violet): ~0.25 µM
C[C@H]1[C@H](OC(=O)CCC(=O)OCCc2ccc(OC(=O)CCC(=O)O[C@@H]3O[C@@H]4O[C@@]5(C)CC[C@H]6[C@H](C)CC[C@@H]([C@H]3C)[C@@]46OO5)cc2)O[C@@H]2O[C@@]3(C)CC[C@H]4[C@H](C)CC[C@@H]1[C@@]24OO3  IC50 (SK-MEL-24; cell growth or viability, MTT; 24 h): 0.24 µM
N[C@H](CC[As](O)O)C(=O)O  IC50 (HCC1569; cell viability): 3 µM
O=C1[O][Pt]2([OH])([OH])([NH]C3CCCCC3[NH]2)[O]C1=O (stereo not shown)  IC50 (T24; cell growth or viability, resazurin; 72 h): > 100 µM
CN(C)CC1C(=O)OC2C1CCC1(C)CC1CCC1(C)OC21 (stereo not shown)  IC50 (U-87 MG; cell growth or viability, resazurin): 10.5 µM
C[C@H]1O[C@@H](O[C@H]2CC[C@@]3(C)[C@H](CC[C@@H]4[C@@H]3C[C@@H](O)[C@]3(C)[C@@H](C5=CC(=O)OC5)CC[C@]43O)C2)C[C@H](O)[C@@H]1O[C@@H]1O[C@H](CO)[C@@H](O)[C@H](O)[C@H]1O  IC50 (BEAS-2B; cell growth or viability, MTT; 48 h): 0.25 µM
COc1ccnc(-c2cc(OC)ccn2)c1.[C-]#[O+].[C-]#[O+].[C-]#[O+].[Re+]  IC50 (MRC-5; cell viability): 6 ± 1.9 µM
Cc1cc(C)n(C(C(=O)OC(C)C)n2nc(C)cc2C)n1.F[P-](F)(F)(F)(F)F.[Cu+].c1ccc(P(c2ccccc2)c2ccccc2)cc1  IC50 (LoVo OXP, oxaliplatin-resistant; MTT; 72 h): 10.5 ± 0.3 µM
CCOC(=O)[C@@H]1Cc2c(cc([N+](=O)[O-])cc2[N+](=O)[O-])[C@H](O)[C@]12C(=O)Nc1ccc(Cl)cc12 (single isomer, unassigned)  IC50 (U-87 MG; cell growth or viability, MTT; 24 h): 6.1 µM
CCN(CC)C1=[S+][Au-]2([S]1)[c]1ccccc1-c1cccc[c]12  IC50 (UWB1289; cell growth or viability, MTT; 72 h): 31.6 µM
CC(=O)NC(Cc1ccc(Br)c(Cl)c1)C(=O)N[C@@H](C)C(=O)N1CCC[C@H]1C(=O)N1CCC[C@H]1C(=O)N[C@@H](CCC(=O)O)C(=O)N[C@@H](Cc1c[nH]cn1)C(=O)N[C@@H](CO)C(=O)N[C@H](C(=O)N[C@@H](C)C(N)=O)[C@@H](C)OP(=O)(O)O (stereo partly shown)  IC50 (U-266; cell growth or viability, MTT; 72 h): 0.09 µM
N=C(N)NCCC[C@@H]1NC(=O)[C@H](CCCCN)NC(=O)[C@@H](Cc2ccc(O)cc2)NC(=O)[C@H](CC(=O)O)NC(=O)CNC1=O  IC50 (U-87 MG; cell adhesion to vitronectin; 2 h, 37 °C): 1.1 ± 0.2 µM
C[C@H]1[C@H](OC(=O)CCC(=O)OCCc2ccc(O)cc2)O[C@@H]2O[C@@]3(C)CC[C@H]4[C@H](C)CC[C@@H]1[C@@]24OO3  IC50 (SK-MEL3; cell viability, MTT; 24 h, without deferoxamine): 2.66 ± 0.9 µM
CCC(C)C1OC(=O)C(NC(=O)c2cccc(NC=O)c2O)C(C)OC(=O)C(C(C)CC)OC(=O)C(C)(C)C(O)C(Cc2ccccc2)OC1=O (stereo not shown)  IC50 (NCM460; cell growth or viability, CCK-8; 72 h): > 50 µM
CCOC(=O)[C@@H]1Cc2c(cc([N+](=O)[O-])cc2[N+](=O)[O-])[C@H](O)[C@]12C(=O)Nc1ccc(Br)cc12  IC50 (U-87 MG; cell growth or viability, MTT; 24 h): 3.6 µM
CC(C)[C@@H]1NC(=O)[C@H](C)OC(=O)[C@@H](C(C)C)NC(=O)[C@@H](C(C)C)OC(=O)[C@H](C(C)C)NC(=O)[C@H](C)OC(=O)[C@@H](C(C)C)NC(=O)[C@@H](C(C)C)OC(=O)[C@H](C(C)C)NC(=O)[C@H](C)OC(=O)[C@@H](C(C)C)NC(=O)[C@H](C)OC1=O  IC50 (U-251; cell growth or viability, SRB; 72 h): 0.5 µM
CC1=C(C(=O)Nc2ccc(F)cc2)C(c2ccccc2Cl)NC(=S)N1 (stereo not shown)  IC50 (THP-1; cell growth or viability, MTT; 24 h): 197 µM
CCCCc1ccc(S(=O)(=O)N2CC2C(=O)OC)cc1 (stereo not shown)  IC50 (HT-1080; cell growth or viability, MTT; 48 h): 104 µM
CC(C)C[C@H](NC(=O)[C@H](CCCCN)NC(=O)[C@H](CC(C)C)NC(=O)[C@H](CC(C)C)NC(=O)[C@H](CCCCN)NC(=O)[C@H](CCCCN)NC(=O)[C@H](CC(C)C)NC(=O)[C@H](CC(C)C)NC(=O)[C@H](CCCCN)NC(=O)[C@H](CC(C)C)NC(=O)[C@H](CC(C)C)NC(=O)[C@H](CCCCN)NC(=O)[C@H](CCCCN)NC(=O)[C@@H](N)CC(C)C)C(N)=O  IC50 (4T1; cell growth or viability, MTT; pH 6): 12.1 µM
Cc1cc(C)c(-n2ccn(-c3c(C)cc(C)cc3C)c2=[Se])c(C)c1.[Cl][Ag]  IC50 (H157 lung carcinoma cells; cell viability, MTT; 72 h): 2 ± 0.7 µM
COc1cc(C=CC(=O)CC(=O)C=Cc2ccc(OC(=O)CCC(=O)OC3OC4OC5(C)CCC6C(C)CCC(C3C)C46OO5)c(OC)c2)ccc1OC(=O)CCC(=O)OC1OC2OC3(C)CCC4C(C)CCC(C1C)C24OO3 (stereo not shown)  IC50 (SK-MEL-24; cell viability, MTT; 24 h, together with: deferoxamine 20 µM, 1 h before): 3.3 ± 0.8 µM
CC(=O)c1ccc2c(c1)N(CCCN(C)C)c1ccccc1S2  IC50 (Vero 76; cytotoxicity): 28.8 ± 11 µM
COC(=O)C1CN1S(=O)(=O)c1c(C)cc(C)cc1C (stereo not shown)  IC50 (HT-1080; cell growth or viability, MTT; 48 h): 17 µM
CCC(C)C1OC(=O)C(NC(=O)c2cccc(NC=O)c2O)C(C)OC(=O)C(C(C)CC)OC(=O)C(C)(C)C(=O)C(Cc2ccccc2)OC1=O (stereo not shown)  IC50 (NCM460; cell growth or viability, CCK-8; 72 h): > 50 µM
CC1=CC(C)=[N+]2C1=Cc1ccc(CCC(=O)NCC3C[NH][Pt]([Cl])([Cl])[NH]3)n1[B-]2(F)F (stereo not shown)  IC50 (KB-3-1 single cells in 3D Matrigel; cytotoxicity, CellTiter-Glo; 1 days, pre-grown 1 day): 53.8 ± 7.1 µM
C[C@@H](N)[C@H](O)CCCCCCCC(=O)CCCCCCCCCCCCCC[C@@H](O[C@@H]1O[C@H](CO)[C@H](O)[C@H](O)[C@H]1O)[C@H](N)CO  IC50 (MCF-12A; cell growth or viability, resazurin; 96 h): 14 µM
CCOC(=O)[C@H]1Cc2c(cc([N+](=O)[O-])cc2[N+](=O)[O-])[C@@H](O)[C@@]12C(=O)Nc1ccccc12  IC50 (U-87 MG; cell growth or viability, MTT; 24 h): 25.3 µM
CC(C)C[C@H](NC(=O)[C@H](CCCCN)NC(=O)[C@H](CC(C)C)NC(=O)[C@H](CC(C)C)NC(=O)[C@H](CCCCN)NC(=O)[C@H](CCCCN)NC(=O)[C@H](CC(C)C)NC(=O)[C@H](CC(C)C)NC(=O)[C@H](CCCCN)NC(=O)[C@H](CC(C)C)NC(=O)[C@H](CC(C)C)NC(=O)[C@H](CCCCN)NC(=O)[C@H](CCCCN)NC(=O)[C@H](CC(C)C)NC(=O)[C@@H](N)CSSC[C@H](N)C(=O)N[C@@H](CC(C)C)C(=O)N[C@@H](CCC(=O)O)C(=O)N[C@@H](Cc1c[nH]cn1)C(=O)N[C@@H](CC(C)C)C(=O)N[C@@H](CC(C)C)C(=O)N[C@@H](CCC(=O)O)C(=O)N[C@@H](Cc1c[nH]cn1)C(=O)N[C@@H](CC(C)C)C(=O)N[C@@H](CCC(=O)O)C(=O)N[C@@H](Cc1c[nH]cn1)C(=O)N[C@@H](CC(C)C)C(=O)N[C@@H](CC(C)C)C(=O)N[C@@H](CCC(=O)O)C(=O)N[C@@H](Cc1c[nH]cn1)C(N)=O)C(N)=O  IC50 (4T1; cell growth or viability, MTT; pH 6): 14 µM
CC[C@H](C)[C@H](NC(=O)[C@H](CCCNC(=N)N)NC(=O)[C@H](CCCNC(=N)N)NC(=O)[C@H](CCCNC(=N)N)NC(=O)[C@@H](NC(=O)[C@@H](NC(=O)[C@H](C)NC(=O)[C@H](CCCNC(=N)N)NC(=O)[C@H](CCCNC(=N)N)NC(=O)[C@H](CCCNC(=N)N)NC(=O)[C@@H]1CCCN1C(=O)[C@@H](N)CCCNC(=N)N)[C@@H](C)O)[C@@H](C)O)C(=O)N[C@H](C(=O)N[C@H](C(=O)NCC(=O)N[C@H](C(=O)N[C@@H](CCCNC(=N)N)C(=O)N[C@@H](CCCNC(=N)N)C(=O)N[C@@H](CCCNC(=N)N)C(=O)N[C@@H](CCCNC(=N)N)C(N)=O)[C@@H](C)O)[C@@H](C)O)[C@@H](C)O  IC50 (Hs68; cell viability, CellTiter-Blue; 24 h, serum-free medium): > 100 µM
O=C(CCCN1CCC2(CC1)C(=O)NCN2c1ccccc1)N(Cc1cccs1)c1ccccc1  IC50 (MIA PaCa-2; cell growth or viability, CCK-8; 72 h): 15 µM
CC(C)C[C@H](NC(=O)[C@H](CC(C)C)NC(=O)[C@H](CCC(=O)O)NC(=O)[C@H](Cc1c[nH]cn1)NC(=O)[C@H](CC(C)C)NC(=O)[C@H](Cc1c[nH]cn1)NC(=O)[C@H](CCC(=O)O)NC(=O)[C@H](CC(C)C)NC(=O)[C@H](CC(C)C)NC(=O)[C@H](CCC(=O)O)NC(=O)[C@H](Cc1c[nH]cn1)NC(=O)[C@@H](N)CC(C)C)C(=O)N[C@@H](CCC(=O)O)C(=O)N[C@@H](Cc1c[nH]cn1)C(N)=O  IC50 (4T1; cell growth or viability, MTT; pH 6): > 100 µM
C[C@@H]1N=C(c2ccccc2)c2cc(C#CCCCC(=O)NO)ccc2N(C)C1=O  IC50 (Kasumi; apoptosis induction, annexin V/PI; 48 h): 0.61 µM
C[C@H]1C(OCCCCCCCC[P+](c2ccccc2)(c2ccccc2)c2ccccc2)O[C@@H]2O[C@@]3(C)CCC4[C@H](C)CCC1[C@]42OO3 (stereo partly shown)  IC50 (T24; cell growth or viability, MTT; 72 h): 0.0569 µM

For quick reference, copied from above:
C[C@H]1[C@H](OC(=O)CCC(=O)OCCc2ccc(OC(=O)CCC(=O)O[C@@H]3O[C@@H]4O[C@@]5(C)CC[C@H]6[C@H](C)CC[C@@H]([C@H]3C)[C@@]46OO5)cc2)O[C@@H]2O[C@@]3(C)CC[C@H]4[C@H](C)CC[C@@H]1[C@@]24OO3  IC50 (SK-MEL-24; cell growth or viability, MTT; 24 h): 0.24 µM
N[C@H](CC[As](O)O)C(=O)O  IC50 (HCC1569; cell viability): 3 µM
O=C1[O][Pt]2([OH])([OH])([NH]C3CCCCC3[NH]2)[O]C1=O (stereo not shown)  IC50 (T24; cell growth or viability, resazurin; 72 h): > 100 µM
